Results pooled from the literature.
Each numbered part is a random draw from the data of one study; scales do not carry over between parts.

Set 1
Target: Sal-like protein 4, full length isoform B (SALL4, Homo sapiens, UniProt Q9UJQ4-2, residues 1-616)
Technique: universal PBM
Molecule type: double-stranded DNA, one strand shown
Matrix: in vitro
Tested at: not given
Notes: 8-mer, flanks averaged, mean of replicates
Reading: higher = stronger binding
Construct (chain): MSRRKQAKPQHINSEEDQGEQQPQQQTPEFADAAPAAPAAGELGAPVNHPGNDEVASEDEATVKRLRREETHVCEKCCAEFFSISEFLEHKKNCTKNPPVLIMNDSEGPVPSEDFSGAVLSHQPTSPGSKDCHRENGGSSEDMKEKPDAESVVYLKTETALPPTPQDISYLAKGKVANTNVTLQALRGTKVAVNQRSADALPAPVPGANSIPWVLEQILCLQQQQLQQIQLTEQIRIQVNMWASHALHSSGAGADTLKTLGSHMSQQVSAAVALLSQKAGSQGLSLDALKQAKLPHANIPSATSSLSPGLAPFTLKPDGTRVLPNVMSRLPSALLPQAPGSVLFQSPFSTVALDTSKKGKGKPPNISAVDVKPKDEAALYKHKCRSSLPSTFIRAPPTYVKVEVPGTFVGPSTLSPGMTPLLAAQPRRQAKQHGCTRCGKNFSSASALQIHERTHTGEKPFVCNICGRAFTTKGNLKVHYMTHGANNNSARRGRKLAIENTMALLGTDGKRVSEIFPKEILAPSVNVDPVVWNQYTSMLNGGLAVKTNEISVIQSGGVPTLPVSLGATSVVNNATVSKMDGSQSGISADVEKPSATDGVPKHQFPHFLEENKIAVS
Strand | E-score
TGCACGAA | 0.167
GTGAGCGA | -0.129
GGACCCCC | -0.471
CATCTGAA | 0.117
AGGCTGAG | -0.184
CGCTACCA | -0.192
AATACAAA | 0.371
CGGGTTGC | -0.232
ATCGAATG | 0.132
CACAAAAG | -0.114
CACCGGCG | -0.287
CCGAGTGA | -0.121
AGTCAAAC | -0.0944
AATGGAAT | 0.124
CCGGGCCG | -0.431
GTCCTTCA | 0.0497
ATTTACGC | 0.159
ACGTCGCC | -0.201
GGCGGACC | -0.413
TCTTGTCA | 0.0451
CTTGGAAA | -0.0211
GCGGACCA | -0.266
TCGTGACA | 0.0341
GCCTTACA | -0.013
CAAGGACC | -0.154

Set 2
Target: Interferon regulatory factor 7, full length, phosphomimetic (IRF7, Homo sapiens, UniProt Q92985, residues 1-503, S101K/S471D/S472D/S475D/S476D/S477D/S483D/S484D/S487D)
UniProt Q92985, sequence (whole entry, unmodified, looked up): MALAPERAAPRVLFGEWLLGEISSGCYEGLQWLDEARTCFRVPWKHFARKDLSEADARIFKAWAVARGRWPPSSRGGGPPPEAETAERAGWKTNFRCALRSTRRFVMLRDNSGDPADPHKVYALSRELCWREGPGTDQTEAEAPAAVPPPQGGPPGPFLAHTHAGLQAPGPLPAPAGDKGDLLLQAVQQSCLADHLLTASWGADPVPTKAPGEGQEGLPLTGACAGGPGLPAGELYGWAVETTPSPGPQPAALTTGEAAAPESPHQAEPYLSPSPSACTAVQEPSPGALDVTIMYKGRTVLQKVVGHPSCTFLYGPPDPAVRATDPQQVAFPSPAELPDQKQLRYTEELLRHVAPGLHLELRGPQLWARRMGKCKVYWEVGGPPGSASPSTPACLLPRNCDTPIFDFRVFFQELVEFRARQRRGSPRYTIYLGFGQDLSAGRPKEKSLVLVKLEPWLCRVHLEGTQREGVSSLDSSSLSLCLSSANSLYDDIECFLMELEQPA
Technique: protein-binding microarray
Molecule type: double-stranded DNA, one strand shown
Matrix: in vitro
Tested at: 250 nM
Notes: 60-bp whole probe
Added: salmon DNA 0.4 mg/ml
Reference: random background probes
Reading: higher = stronger binding
Shared flanks, not repeated: GCCTAGCAC … GTCTTGATTCGCTTGACGCTGCTG
Strand | log fluorescence
CTGCCTGCTCAGACTGGGGCGTGCTAG | -0.416 z-score
TTAGAACTGGGGTATTGATTAGTGCTA | -0.447 z-score
GATGATATCAGTTTCGAGACGTGCTAG | 3.71 z-score
TTAGTTTTCCTTCTCCTTTAGTGCTAG | 3.46 z-score
TCATTTCTTTCAAATGAAACTGTGCTA | 1.92 z-score
GAGGATATCGGGTATCGAGACGTGCTA | -0.542 z-score
GACGGTTTCCTTTTCCTCACGTGCTAG | 6.91 z-score
GACGGTATCCTTTTCCTGTCGTGCTAG | 1.47 z-score
CAGGAATGGCACCAGCAGGGGTGCTAG | -0.716 z-score
TTAGGACTGGTACTGGGTTAGTGCTAG | -0.143 z-score
CTCAAAGTCTTTTATGGTATTGTGCTA | 0.181 z-score
TGAGATTTCAGTTTCGATTAGTGCTAG | 8.85 z-score
TTAGGTATCGGGACTGGGTTCGTGCTA | 0.0703 z-score
TCAGCTTTGCCTTTTGCACTGTGCTAG | -0.589 z-score
TTAGGACTGCATTTCCTTTAGTGCTAG | 0.551 z-score
TAGTTTTTACTTTCTGAATGGTGCTAG | 2.33 z-score
GGCGGTATCGGGACTGGGGACGTGCTA | -0.297 z-score
GACGGACGGGGTTTCGGGACGTGCTAG | 1.56 z-score
GACGTTCTCAGTTTCGAGACGTGCTAG | 4.17 z-score
CCAGTGCTGCTTTGTCAAGAGTGCTAG | -0.457 z-score
GACGGTATCCTATTCCTGACGTGCTAG | 0.685 z-score
TCACCTTTATATACCTGACTGTGCTAG | 0.705 z-score
TTAGGTTTCCTTCTCCGTTAGTGCTAG | 2.6 z-score
CTCTCTTCACATATAATTTTGTGCTAG | 0.386 z-score

Set 3
Target: Histone acetyltransferase KAT6A, both winged helices, GST fusion (KAT6A, Homo sapiens, UniProt Q92794, residues 1-181)
Technique: protein binding microarray
Molecule type: double-stranded DNA, one strand shown
Matrix: in vitro
Tested at: not given
Notes: 8-mer, flanks averaged, mean of 2 arrays, mostly near background
Reference: not given
Reading: higher = stronger binding
Construct (chain): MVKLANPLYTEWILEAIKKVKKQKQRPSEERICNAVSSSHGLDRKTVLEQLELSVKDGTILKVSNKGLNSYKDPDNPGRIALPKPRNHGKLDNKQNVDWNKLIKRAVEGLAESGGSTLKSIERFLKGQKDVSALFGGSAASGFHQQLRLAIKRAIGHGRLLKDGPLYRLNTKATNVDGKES
Strand | E-score
ACTCCCAA | -0.261
CAGGGTCA | -0.097
AAGTCTTG | 0.0348
CATTCTCC | -0.145
GTGATCAA | 0.0512
AGGATCCG | 0.0594
GGACCCCA | -0.212
ATGACAAC | -0.084
ACCTTCTC | -0.208
CAGTCGGC | 0.139
AAGGCTGG | -0.267
CGGCCGTC | 0.376
TTGCCCAA | 0.0523
ACCTAATG | -0.202
GCACTAGC | 0.104
AGACTGCT | -0.199
GGACAGTA | 0.0323
ACAGTGGT | -0.246
AAATAGTA | -0.137
GTCATCAA | 0.0149

Set 4
Target: RNA binding protein fox-1 homolog 2, RRM domain, GST-SBP tag (RBFOX2, Homo sapiens, UniProt O43251-10, residues 100-194)
Technique: RNA Bind-n-Seq
Molecule type: RNA
Matrix: in vitro
Tested at: 365 nM
Notes: natural RNA segment, single round, ends assumed
Reference: no-protein control
Reading: higher = stronger binding
Shared flanks, not repeated: GGGAGUUCUACAGUCCGACGAUC … UGGAAUUCUCGGGUGCCAA
Residues (chain): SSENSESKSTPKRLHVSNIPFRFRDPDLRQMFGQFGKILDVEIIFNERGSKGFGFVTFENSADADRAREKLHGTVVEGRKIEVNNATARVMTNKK
Strand | RBNS enrichment (R)
GGCAGCCGCCAGCCAAAAUGAUGCCAUUGCCUGAGCUGACAGCCAAGCCCUUCUGUGGGUCACCUUUCUCCUCACCCAGCCCCUUGCUCUUCCCUUUUGAAAGGCCCGUG | 0.44
GUGAAAGAAAAGCACAACAAAACUAGGGUUUUUUGUUCAUUUGCUUGCUUUUAUGAUUUUUUUUGGUUUGUUUUAAUAUCAGGUGGAUUUUUGUUUCUAAGCAAUAUAUA | 0.937
AGUCAGAAAAACCAGAGCGACUGUUAAGGGCUUUGGCCAGCUUUCUAGGCAGCGAGUGCAGGUGACAACGGUGGUCUAGGGAGAGUUACUGGUAUGGAACACAGACAUGG | 0.638
UGUGGGUGGCAUGAUUGUACCCUCCUGGCUCUGUAUUUUCUCACUCCUCUGUCCUUCUAUAACUAGGUUCCUGUUCUUACACACCUGUCCACCGAAUGUCACUCACUGAG | 1.35
CUUUUUGCCCCUCCUUCCUUAGCAAGCCCGUUUGAUUGACAGCUCUCCUGCUCUGAGUUCACUCUGUGCCUCCAUUUGCAUUUUGCUUAGUUGAUCCGGUUUCUCUGUUC | 2.2
GAAAAAAAUAUAUAUAUUUUUGGAAAUGUAGCAUUUUAUACUUUCAAGUGUUAUAAAAAAAAAGAAAAAGAACAAAGAAACCCUUUAUUUCAUUAAAUGAUUUUUUCUGG | 1.03
UCCCUAGAAAGCCAUAUUCCAGCAAUGAACCUUGUGCUAUAGUGACUCCCACCUGUACAUACAUUGUAUAGGCCACCUGUACAUAUCCCAGAGAACAAUCACUAUUCUUA | 0.419
UAGCCAUGGAAGCAUAGCCACUGGAAAGGAACAGUGCAUGAGGCAGAUGUUCGUUUCUGGUGGAAAUUGGGCCCCUGUGUUCCUCCAGGGCAAGUCUCAGGGGAAGCUCA | 2.08
GUUUUCUUACCAAGCAUCCCUGACCUCCUGGAGACACCACCUGCUUUCCGGGCGGCACUGUGAUGGGAGCUGGUGGCGACUGAGUCCUUCUGUACGUGCAACUGGGAAAC | 1.57
GAGAUGAGUUCCUUGUAGGUACCAGCUUCUGGCUCAAGAGUUGAAGGUGCCAUCGCAGGGUCAGGCCUGCCCUGUCCCGAAGUGAUCUCCUGGAAGACAAGUGCCUUCUC | 0.308
CCCCUCCCCAGACGCCUCCAUUAACCACAGACUAUGUAGCGCUGGCCCUAGCCUCUGGCAGAGCCUGUUCCUGGCCAAACUGUGGCUACAGCUGGAGGGUCAGGAACUGU | 0.354
UAACUGUGGUGUUAUGUAAAUAAAAUUAGUAAUAAUCAGGCUUUAGAACUGCUUUCCUAUAUUUAUUUCUUGAUAUUUGAGUAAGGGAUCUGAAUAAACAACCCCAGCCC | 0.461

Set 5
Target: Prothrombin, mature alpha-thrombin (F2, Homo sapiens, UniProt P00734)
Technique: aptamer microarray, sandwich
Molecule type: DNA with 2'F-ANA
Matrix: in vitro
Tested at: 200 nM
Notes: whole 15-mer aptamer, many near background
Added: Cy3 exosite-II aptamer, 400 nM
Reading: higher = stronger binding
Strand: GGTTGGTGTGGTTGG
Modification | mean fluorescence intensity [a.u.]
2'F-ANA at 5 6 7 9 10 12 14 | 50.5
2'F-ANA at 1 3 5 7 8 10 11 13 14 | 78.4
2'F-ANA at 1 3 4 6 10 11 12 15 | 72.4
2'F-ANA at 2 4 6 7 9 13 14 15 | 73.2
2'F-ANA at 2 4 9 10 11 12 14 | 82.6
2'F-ANA at 1 4 5 6 7 8 9 12 13 14 15 | 51
2'F-ANA at 1 3 7 10 11 | 74
2'F-ANA at 2 5 6 8 9 10 13 15 | 49.7
2'F-ANA at 1 4 6 7 9 10 13 | 48.2
2'F-ANA at 1 2 3 4 6 8 10 11 13 15 | 123
2'F-ANA at 2 10 13 14 15 | 81.1
2'F-ANA at 1 2 3 5 6 10 11 13 15 | 50.1
2'F-ANA at 1 4 6 7 12 13 15 | 178
2'F-ANA at 2 3 6 7 11 12 14 | 381
2'F-ANA at 1 2 4 6 7 8 9 10 12 | 87.9
2'F-ANA at 1 2 4 5 7 9 10 11 12 13 14 | 46.5
2'F-ANA at 2 6 9 10 11 12 15 | 127
2'F-ANA at 1 3 11 14 15 | 82.9
2'F-ANA at 2 7 8 9 10 13 15 | 126
2'F-ANA at 1 2 3 6 7 8 9 10 12 13 15 | 75.4
2'F-ANA at 3 4 5 7 8 12 14 | 70.6
